Experimental data gathered from unrelated publications.
Protocols differ between the studies behind these lines. ± gives the spread as reported.
Organism: Pseudomonas aeruginosa

SMILES	strain	dose	concentration	time	temperature	inhibition zone diameter [mm]
CCOC(=O)C1=C(C)NC2=C(C(=O)CC(C)(C)C2)C1c1ccc(OCC(=O)NN=Cc2cccc([N+](=O)[O-])c2)cc1OCC(=O)NN=Cc1cccc([N+](=O)[O-])c1 (stereo not drawn)	DSM 50070	–	concentration not given	24 h	37 °C	4.2 ± 0.3
CO[C@H]1O[C@H](COC(c2ccccc2)(c2ccccc2)c2ccccc2)[C@@H](OS(=O)(=O)c2ccccc2)[C@H](OS(=O)(=O)c2ccccc2)[C@H]1OS(=O)(=O)c1ccccc1	–	–	concentration not given	–	–	17 ± 0.5
CC(=NNC(=N)N)c1nnn(-c2ccc(C#CC3(O)CCCCC3)cc2)c1C	ATCC 10145	–	concentration not given	–	–	21.7 ± 0.47
CCN(CC)CCn1nc(C23CC4CC(CC(C4)C2)C3)n(C)c1=S	IFO 3448	200 µg/disc	–	24 h	37 °C	< 10
Cc1cc(O)c2c(c1)C(=O)c1cc3oc(=O)cc(-c4ccccc4)c3c(O)c1C2=O	MTCC 2453	100 µg/disc	–	–	–	8
CCN1CCN(Cn2nc(C34CC5CC(CC(C5)C3)C4)n(-c3ccccc3)c2=S)CC1	IFO 3448	200 µg/disc	–	24 h	37 °C	< 10
CCOC(=O)C1=C(C)NC2=C(C(=O)CC(C)(C)C2)C1c1ccc(OCC(=O)NN=Cc2cc(Br)c(O)c(Br)c2)cc1OCC(=O)NN=Cc1cc(Br)c(O)c(Br)c1 (stereo not drawn)	DSM 50070	–	concentration not given	24 h	37 °C	6.1 ± 0.01
S=c1n(CN2CCN(c3ccccc3)CC2)nc(C23CC4CC(CC(C4)C2)C3)n1-c1ccccc1	IFO 3448	200 µg/disc	–	24 h	37 °C	10
CC(=O)[O-].O.O.O.O.[Co+2].[O-]c1ccc(Br)cc1C=NCCN1CCOCC1	–	20 µL of 100 µM per disc	–	–	–	13

Excerpt of the above:
SMILES	strain	dose	concentration	time	temperature	inhibition zone diameter [mm]
CCN1CCN(Cn2nc(C34CC5CC(CC(C5)C3)C4)n(-c3ccccc3)c2=S)CC1	IFO 3448	200 µg/disc	–	24 h	37 °C	< 10
